Measured values of several laboratories.
Compare with care: the assays were run in different laboratories. Numbers after ± are the reported error.
Cell line: A549

| Structure (SMILES) | assay | setting | scale | measurement | result |
| --- | --- | --- | --- | --- | --- |
| CC(C)C[C@@H](NC(=O)[C@@H](C)NC(=O)[C@@H](CC(C)C)NC(=O)[C@@H](CCCCN)NC(=O)[C@H](N)CCCCN)C(=O)N[C@H](Cc1c[nH]cn1)C(=O)N[C@H](C)C(=O)N[C@H](CC(C)C)C(=O)N[C@H](CCCCN)C(=O)N[C@H](CCCCN)C(=O)N[C@H](Cc1c[nH]c2ccccc12)C(=O)N[C@H](CC(C)C)C(=O)N[C@H](Cc1c[nH]cn1)C(=O)N[C@H](C)C(=O)N[C@H](CC(C)C)C(=O)N[C@H](CCCCN)C(=O)N[C@H](CCCCN)C(=O)N[C@H](CC(C)C)C(=O)N[C@H](C)C(=O)N[C@H](Cc1c[nH]cn1)C(=O)N[C@H](CC(C)C)C(=O)N[C@H](C)C(=O)N[C@H](CC(C)C)C(=O)N[C@H](CCCCN)C(=O)N[C@H](CCCCN)C(N)=O | cytotoxicity, MTT | four hours, 37 °C, serum-free medium |  | EC50 | 4540 ± 300 nM |
| O=C(CN1C(=O)S/C(=C\c2ccccc2Br)C1=O)Nc1ccc(C(=O)Nc2ccc(F)cc2)cc1 | MTT |  | relative to: IC50 Vero over IC50 A549 | selectivity index | 24.8 |
| COc1cc(C)c(OC)c2c1OCO2 | cell growth or viability, MTT | 72 h |  | GI50 | > 250000 nM |
| CC(C)C[C@@H](NC(=O)[C@H]1CCCN1C(=O)[C@@H](CC(C)C)NC(=O)[C@@H](Cc1c[nH]c2ccccc12)NC(=O)[C@@H](CCCCN)NC(=O)[C@@H](CCCCN)NC(=O)[C@@H](C)NC(=O)[C@@H](CC(C)C)NC(=O)[C@@H](C)NC(=O)[C@@H](CC(C)C)NC(=O)[C@@H](C)NC(=O)[C@@H](CC(C)C)NC(=O)[C@@H](CCCCN)NC(=O)[C@H](N)CCCCN)C(=O)N[C@H](C)C(=O)N[C@H](CCCCN)C(=O)N[C@H](CCCCN)C(=O)N[C@H](CC(C)C)C(=O)N[C@H](C)C(=O)N[C@H](CC(C)C)C(=O)N[C@H](C)C(=O)N[C@H](CC(C)C)C(=O)N[C@H](C)C(=O)N[C@H](CCCCN)C(=O)N[C@H](CCCCN)C(N)=O | cytotoxicity, MTT | four hours, 37 °C, serum-free medium |  | EC50 | 3110 ± 570 nM |
| CC(C)C(O)C(NC(=O)[C@H](Cc1ccc(O)cc1)NC(=O)C(Cc1ccc(O)cc1)[N+](C)(C)C)C(=O)N[C@@H](C)C(=O)O (some centres unmarked) |  | 100 µM |  | antiproliferative activity | inactive |
| COc1cc(C)cc2c1OCO2 | cell growth or viability, MTT | 72 h |  | GI50 | 12800 nM |
| CCOP(=O)(OCC)OCCCCOC(=O)CC1=C(C)C(=Cc2ccc([S+](C)[O-])cc2)c2ccc(F)cc21 (centres unmarked) | cell viability | with: 3-methyladenine 5 mM | relative to: without 3-methyladenine | IC50 increase | 50% |
| CCCc1cc2c(c(OC)c1OC)OCO2 | cell growth or viability, MTT | 72 h |  | GI50 | > 250000 nM |
| CC1=CC[C@]2(C(=O)O[C@H]3OC[C@@H](O)[C@@H](O)[C@@H]3OS(=O)(=O)O)CC[C@]3(C)C(CCC4[C@@]5(C)CC[C@H](O)C(C)(C)C5CC[C@]43C)C2[C@H]1C (some centres unmarked) | annexin V/PI flow cytometry | concentration not given, 48 h | relative to: untreated | apoptotic cells | 32 fold |
| O=C(CN1C(=O)S/C(=C\c2ccccc2)C1=O)Nc1ccc(C(=O)Nc2ccc(F)cc2)cc1 | MTT |  | relative to: IC50 Vero over IC50 A549 | selectivity index | 21.9 |
| NS(=O)(=O)c1ccc2c(c1)[C@@H]1[C@@H](Cl)[C@H](Sc3ccccc3[N+](=O)[O-])C[C@H]1[C@H](c1ccc(Cl)cc1)N2 | Annexin V/PI flow cytometry | 20 µM, 48 h, hypoxia |  | apoptotic cells | 57.4% |
| CCCCCCCCCCCCCCCC[P+](c1ccccc1)(c1ccccc1)c1ccccc1 | cell growth or viability, MTT | 72 h |  | GI50 | 728 nM |
| CCCCCCCC(=O)SCCC=CC1CC(=O)NCc2nc(cs2)C2=NC(C)(CS2)C(=O)NC(C(C)C)C(=O)O1 (centres unmarked) | cell growth or viability |  |  | GI50 | > 10000 nM |
| CCCCCCCCC[P+](c1ccccc1)(c1ccccc1)c1ccccc1 | cell growth or viability, MTT | 72 h |  | GI50 | 171 nM |
| CC(C)C[C@@H](NC(=O)[C@@H](C)NC(=O)[C@@H](CCCCN)NC(=O)[C@H](N)CCCCN)C(=O)N[C@H](C)C(=O)N[C@H](Cc1c[nH]cn1)C(=O)N[C@H](C)C(=O)N[C@H](CC(C)C)C(=O)N[C@H](CCCCN)C(=O)N[C@H](CCCCN)C(=O)N[C@H](Cc1c[nH]c2ccccc12)C(=O)N[C@H](CC(C)C)C(=O)N1CCC[C@@H]1C(=O)N[C@H](C)C(=O)N[C@H](CC(C)C)C(=O)N[C@H](CCCCN)C(=O)N[C@H](CCCCN)C(=O)N[C@H](CC(C)C)C(=O)N[C@H](C)C(=O)N[C@H](Cc1c[nH]cn1)C(=O)N[C@H](C)C(=O)N[C@H](CC(C)C)C(=O)N[C@H](C)C(=O)N[C@H](CCCCN)C(=O)N[C@H](CCCCN)C(N)=O | cytotoxicity, MTT | four hours, 37 °C, serum-free medium |  | EC50 | 2210 ± 630 nM |
| CC(C)[C@H]1NC(=O)[C@H](CO)NC(=O)c2cc3cc(c2)C(=O)NC[C@H](NC(=O)[C@H](Cc2c[nH]cn2)NC(=O)[C@H](Cc2ccc(C(F)(F)P(=O)(O)O)cc2)NC(=O)[C@@H]2CCCN2C1=O)C(=O)N[C@@H](Cc1ccccc1)C(=O)N[C@@H](Cc1ccc2ccccc2c1)C(=O)N[C@@H](CCCNC(=N)N)C(=O)N[C@@H](CCCNC(=N)N)C(=O)N[C@@H](CCCNC(=N)N)C(=O)N[C@@H](CCCNC(=N)N)C(=O)N[C@H](C(=O)N[C@@H](CCCCN)C(N)=O)CNC3=O | tyrosine phosphorylation, anti-pY immunoblot | 2 h |  | concentration of effect reversal | > 1 µM |
| Cc1cccc(-c2cccc(C)n2)n1.[Cl-].[Cl-].[Ru+2].c1ccc(-c2ccccn2)nc1.c1ccc(-c2ccccn2)nc1 | cell growth or viability | 72 h, dark |  | EC50 | > 300000 nM |
| CCC[P+](c1ccccc1)(c1ccccc1)c1ccccc1 | cell growth or viability, MTT | 72 h |  | GI50 | 971 nM |
| CC(C)C[C@@H](NC(=O)[C@@H](C)NC(=O)[C@@H](CC(C)C)NC(=O)[C@@H](CCCCN)NC(=O)[C@@H](CCCCN)NC(=O)[C@@H](CC(C)C)NC(=O)[C@@H](C)NC(=O)[C@H]1CCCN1C(=O)[C@@H](CC(C)C)NC(=O)[C@@H](Cc1c[nH]c2ccccc12)NC(=O)[C@@H](CCCCN)NC(=O)[C@@H](CCCCN)NC(=O)[C@@H](CC(C)C)NC(=O)[C@@H](C)NC(=O)[C@@H](CC(C)C)NC(=O)[C@@H](CC(C)C)NC(=O)[C@@H](C)NC(=O)[C@@H](CC(C)C)NC(=O)[C@@H](CCCCN)NC(=O)[C@H](N)CCCCN)C(=O)N[C@H](CC(C)C)C(=O)N[C@H](C)C(=O)N[C@H](CC(C)C)C(=O)N[C@H](CCCCN)C(=O)N[C@H](CCCCN)C(N)=O | cytotoxicity, MTT | four hours, 37 °C, serum-free medium |  | EC50 | 2440 ± 430 nM |
| CCCc1cc(OC)c2c(c1OC)OCO2 | cell growth or viability, MTT | 72 h |  | GI50 | > 250000 nM |
| Cc1cccc(O)c1C(=O)OCC1(O)C(Nc2ccc3c(c2)Cc2ccccc2-3)C(N)C(NC(=O)N(C)C)(C(C)O)C1(C)O (centres unmarked) | cell growth or viability |  |  | EC50 | 324 nM |
| Cc1[nH]c(=O)c(CNC(=O)c2ccc(C(F)(F)F)nc2)c2c1CCCC2 | MTT |  | relative to: A549 IC50 over M. tuberculosis MIC | selectivity index | > 111 |
| O=C1C=CC(=O)c2c(O)ccc(O)c21 | cytotoxicity, MTT |  | relative to: IC50 MRC5 over IC50 A549 | selectivity ratio | 4.52 |
